Experimental data of several laboratories.
Protocols differ between the studies behind these lines. Values joined by “and” are separate records of one study, mostly repeats; a detail may differ. ± gives the spread as reported.

SMILES	cell line	assay	test system	setting	scale	measurement	value
C#CCCC[C@H]1OC(=O)[C@H](C(C)C)N(C)C(=O)[C@@H]2CCCN2C(=O)[C@H]([C@@H](C)CC)OC(=O)[C@H]([C@@H](C)CC)N(C)C(=O)[C@H]([C@@H](C)CC)NC(=O)[C@H]1C	hiPSC-derived nociceptors	multi-well microelectrode array	–	30 µM, within first hour, 37 °C	baseline: DMSO	neuronal activity reduction	~60%
Cn1cncc1C1=CN(c2ncnc3[nH]cnc23)CCS1	786-0	–	–	renal cancer cell line	–	CC50	91200 nM
Cc1cccc(-c2cccc(C)n2)n1.Cc1cccc(-c2cccc(C)n2)n1.F[P-](F)(F)(F)(F)F.F[P-](F)(F)(F)(F)F.[Ru+2].c1ccc2cc(-c3nc4c5cccnc5c5ncccc5c4[nH]3)ccc2c1	SK-MEL-28	–	–	normoxia, with: green light 523 nm, 100 J/cm2	baseline: dark over light EC50	phototoxicity index	1
COc1ccc2c(c1)CC[C@@H]1[C@@H]2CC[C@]2(C)[C@@H](NCCCCCCN3C(=O)C=CC3=O)CC[C@@H]12	N2a	fluorescence signal increase, inhibitor	–	1 µM, activation phase, with: BzATP 300 µM	–	effect on signal	no effect
COc1ccc([C@H]2c3[nH]c4ccc(Cl)cc4c3CCN2C(=O)Oc2ccc(Cl)cc2)cc1	CD19+ B cells with PBMC	cytokine secretion, item: s-IL-17F	–	0.1 µM, 72 h, BioMAP BT system	–	inhibition	74%
Oc1cc(Cl)ccc1Oc1ccc(Cl)cc1Cl	HepG2	high content imaging, item: DNA structure	–	24 h, distribution mode 1	–	point of departure	0.977 µM
N.N.[Cl][Pt][Cl]	SK-MEL-28	cell viability, resazurin	–	dark, 1% O2 hypoxia	–	EC50	3350 ± 90 nM
COc1cnc(OC)n2nc(NS(=O)(=O)c3c(OCC(F)F)cccc3C(F)(F)F)nc12	HEK293T	cytotoxicity, CCK-8	–	1.56 µM, 72 h	–	inhibition	0%
O=C1CCP(c2ccccc2)CC1	PC-3	MTT	–	72 h	baseline: IC50 HaCaT over IC50 PC-3	selectivity index	0.8
CN1CCN(C2(CNC3CCN(c4cccc(-c5cc6cc(F)ccc6[nH]5)c4)CC3)CCC2)CC1	CCRF-CEM	–	–	–	–	GI50	498 nM
CCN(CC)c1ccc(C=NNC(=O)CSc2nc3ccccc3c(=O)n2Cc2ccc(S(N)(=O)=O)cc2)c(O)c1	BT-549	NCI five-dose screen	–	–	–	CC50	> 100000 nM
COc1ccc2c(c1)[nH]c1c(C)nccc12	DU-145	bisulfite pyrosequencing, item: RASSF1A promoter CpG site 31	–	10 µM, 16 h	–	DNA methylation	95.4%
OC1CCN(c2ncnc3[nH]cc(-c4cccc(Cl)c4)c23)CC1	HEK293	Western blot, item: MOB1 phospho-Thr35	–	10 µM, 4 h, with: H2O2 50 µM for 2 h	baseline: DMSO	phosphorylated MOB1 level	decreased
COc1c(C)c2c(c(O)c1C/C=C(\C)CCC(=O)O)C(=O)OC2	CLS-439	cell proliferation	–	–	–	IC50	468 nM
CO/C1=C\C(C)=C\[C@@H](C)[C@@H](O)[C@@H](C)C/C(C)=C/C=C/[C@H](OC)[C@@H]([C@@H](C)[C@@H](O)[C@H](C)[C@@]2(O)C[C@@H](O)[C@H](C)[C@@H](C(C)C)O2)OC1=O	HEK293	BCECF-AM	–	concentration not given, 4 h	baseline: vehicle	cytosolic pH	no effect
O=C1N(Cc2ccccc2Cl)c2ccccc2C12NN=C(c1ccccc1)S2 (stereo not drawn)	MDA-MB-468	gene expression array, item: BARD1 mRNA	–	10 µM, 12 h	baseline: untreated, down	fold change	1.51
N.N.[Cl][Pt][Cl]	SK-MEL-28	cell viability	–	dark, 1% O2	–	EC50	4630 ± 80 nM
COc1c(CCC[P+](c2ccccc2)(c2ccccc2)c2ccccc2)cc2c(c1OC)OCO2.[I-]	Hs-578T	SRB	–	–	–	GI50	-5.76 log M
Nc1ncnc2c1ncn2[C@@H]1O[C@@H]2COP(=O)(O)O[C@H]3[C@@H](O)[C@H](n4cnc5c(=O)[nH]cnc54)O[C@@H]3COP(=O)(O)O[C@H]2[C@H]1O	HFF-1	RNA sequencing, item: Reactome R-HSA-8874081	–	downregulated pathway	baseline: Zika virus alone	pathway fold enrichment	11.9
Oc1ccc(C(c2ccc(O)cc2)(C(F)(F)F)C(F)(F)F)cc1	HepG2 spheroids	Hoechst flow cytometry	–	10 µM, 96 h	–	G2 phase cells	20.1 ± 8.63%

SMILES	cell line	assay	test system	setting	scale	measurement	value
COc1cc(CCC[P+](c2ccccc2)(c2ccccc2)c2ccccc2)c(OC)c2c1OCO2.[I-]	MDA-MB-435	SRB	–	–	–	LC50	-4.48 log M
Nc1ncc(-c2nc(N3CCOCC3)nc(N3CCOCC3)n2)c(C(F)F)n1	LNCaP clone FGC	cell growth	–	72 h	–	GI50	60 nM
CC(C)N1CCC(NC2CCN(c3cccc(-c4cc5cc(F)ccc5[nH]4)c3)CC2)CC1	786-0	–	–	–	–	TGI	3260 nM
CC(C)=CCc1c(O)cc(O)cc1-c1cc2ccc(O)c(CC=C(C)C)c2o1	3T3	cell growth, MTT	–	100 µg/mL, 48 h	–	cell survival	33.7 ± 0.42%
CN1CCN(S(=O)(=O)c2cc([N+](=O)[O-])ccc2N(CCOS(C)(=O)=O)CCOS(C)(=O)=O)CC1	sample J MLL-ALL PDX cells	cell viability	ex vivo	–	–	IC50	8.2 nM
Oc1cc(O)cc(-c2cc3ccc(O)cc3o2)c1	3T3	cell growth, MTT	–	100 µg/mL, 48 h	–	cell survival	33.6 ± 0.34%
Cc1ccc2cc(N3CCC4(O)C(=O)c5cc(C)c(C)cc5N=C34)ccc2n1 (stereo not drawn)	COS-7	cytokinesis	–	24 h	–	EC50	680 nM
O=C1CCP(=S)(c2ccccc2)CC1	HaCaT	ELISA	–	concentration not given, compound at IC50	baseline: control	IL-6 level reduction	38.9%
Oc1ccc(C2(c3ccc(O)cc3)c3ccccc3-c3ccccc32)cc1	HepG2 spheroids	Hoechst flow cytometry	–	1 µM, 96 h	–	S phase cells	9.03 ± 1.17%
CC(C)C[C@H](NC(=O)[C@H](CCc1ccccc1)NC(=O)CN1CCOCC1)C(=O)N[C@@H](Cc1ccccc1)C(=O)N[C@@H](CC(C)C)C(=O)[C@@]1(C)CO1	patient normal conditionally reprogrammed cells	RNA-seq, item: TUBB4A mRNA	human	concentration not given	baseline: DMSO	fold change	-99.6
O=C(Nc1ccc2[nH]nc(-c3ccncc3)c2c1)[C@@H]1CCN(CC(=O)N2CCN(c3ccc(-c4ncccn4)cc3)CC2)C1	HCT116	IncuCyte	–	concentration not given, 44 (unit not given)	–	PI-positive cells	24.1 count and 20.5 count and 25.2 count
CCn1cc(-c2cc(Cn3ccnc3)cc3c2CCN([C@H](c2cc(OC)ccn2)C2CC2)C3=O)c(C(F)(F)F)n1	A101D	cell growth, inhibitor	–	120 h	–	EC50	66.6 nM
CC(=O)OCOC(=O)CN(CC(=O)OCOC(C)=O)c1ccccc1OCCOc1ccccc1N(CC(=O)OCOC(C)=O)CC(=O)OCOC(C)=O	N2a	fluorescence signal increase, inhibitor, live-cell imaging	–	30 µM, activation phase, with: BzATP 300 µM	–	inhibition	37%
Cc1cc(C(C)(C)c2ccc(O)c(C)c2)ccc1O	HepG2 spheroids	Hoechst flow cytometry	–	1 µM, 96 h	–	G2 phase cells	21.1 ± 3.92%
C[C@]12CC[C@H](O)C[C@H]1CC[C@@H]1[C@@H]2CC[C@]2(C)[C@@H](c3ccc(=O)oc3)CC[C@]12O	MCF7	RT-qPCR, item: CCND1	–	20 nM, 48 h, unit not given, with: estradiol	baseline: untreated	mRNA level	1.53 and 1.88 and 1.5
C[C@H]1[C@H](C)CC[C@]2(C(=O)O)CC[C@]3(C)C(=CC[C@@H]4[C@@]5(C)CC[C@H](O)C(C)(C)[C@@H]5CC[C@]43C)[C@H]12	3T3	cell growth, MTT	–	50 µg/mL, 48 h	–	cell survival	45.86 ± 0.34%
C/C=C(/C)C(=O)O[C@H]1C(C)=C2[C@H]([C@@H]1OC(=O)CCCCCCC)[C@@](C)(OC(C)=O)C[C@H](OC(=O)CCC)[C@@]1(O)[C@H]2OC(=O)[C@@]1(C)O	HEK-293T	RNA-seq GSEA, item: Hallmark allograft rejection	–	500 nM, 6 h	direction not given	normalized enrichment score	-1.04
CC(c1ccccc1)(c1ccc(O)cc1)c1ccc(O)cc1	HepG2 spheroids	Hoechst flow cytometry	–	0.01 µM, 96 h	–	G1 phase cells	76.2 ± 7.74%
C[C@@H](O)[C@H]1C(=O)N2C(C(=O)O)=C(S[C@@H]3CN[C@H](C(=O)N(C)C)C3)[C@H](C)[C@H]12	Escherichia coli DH5α expressing KPC-25	bacterial growth	–	–	–	MIC	≤ 0.06 µg/mL

Some of these lines once more:
SMILES	cell line	assay	test system	setting	scale	measurement	value
COc1cc(CCC[P+](c2ccccc2)(c2ccccc2)c2ccccc2)c(OC)c2c1OCO2.[I-]	MDA-MB-435	SRB	–	–	–	LC50	-4.48 log M
N.N.[Cl][Pt][Cl]	SK-MEL-28	cell viability	–	dark, 1% O2	–	EC50	4630 ± 80 nM
CN1CCN(S(=O)(=O)c2cc([N+](=O)[O-])ccc2N(CCOS(C)(=O)=O)CCOS(C)(=O)=O)CC1	sample J MLL-ALL PDX cells	cell viability	ex vivo	–	–	IC50	8.2 nM
C#CCCC[C@H]1OC(=O)[C@H](C(C)C)N(C)C(=O)[C@@H]2CCCN2C(=O)[C@H]([C@@H](C)CC)OC(=O)[C@H]([C@@H](C)CC)N(C)C(=O)[C@H]([C@@H](C)CC)NC(=O)[C@H]1C	hiPSC-derived nociceptors	multi-well microelectrode array	–	30 µM, within first hour, 37 °C	baseline: DMSO	neuronal activity reduction	~60%
Oc1cc(O)cc(-c2cc3ccc(O)cc3o2)c1	3T3	cell growth, MTT	–	100 µg/mL, 48 h	–	cell survival	33.6 ± 0.34%
Cc1cc(C(C)(C)c2ccc(O)c(C)c2)ccc1O	HepG2 spheroids	Hoechst flow cytometry	–	1 µM, 96 h	–	G2 phase cells	21.1 ± 3.92%
